Assay results from different studies.
Compare with care: the assays were run in different laboratories. Several values in a cell are separate wells, animals, samples, runs or records.
TDP1: Tyrosyl-DNA phosphodiesterase 1 (TDP1, Homo sapiens, UniProt Q9NUW8)
Chain of UniProt Q9NUW8 (whole entry, looked up): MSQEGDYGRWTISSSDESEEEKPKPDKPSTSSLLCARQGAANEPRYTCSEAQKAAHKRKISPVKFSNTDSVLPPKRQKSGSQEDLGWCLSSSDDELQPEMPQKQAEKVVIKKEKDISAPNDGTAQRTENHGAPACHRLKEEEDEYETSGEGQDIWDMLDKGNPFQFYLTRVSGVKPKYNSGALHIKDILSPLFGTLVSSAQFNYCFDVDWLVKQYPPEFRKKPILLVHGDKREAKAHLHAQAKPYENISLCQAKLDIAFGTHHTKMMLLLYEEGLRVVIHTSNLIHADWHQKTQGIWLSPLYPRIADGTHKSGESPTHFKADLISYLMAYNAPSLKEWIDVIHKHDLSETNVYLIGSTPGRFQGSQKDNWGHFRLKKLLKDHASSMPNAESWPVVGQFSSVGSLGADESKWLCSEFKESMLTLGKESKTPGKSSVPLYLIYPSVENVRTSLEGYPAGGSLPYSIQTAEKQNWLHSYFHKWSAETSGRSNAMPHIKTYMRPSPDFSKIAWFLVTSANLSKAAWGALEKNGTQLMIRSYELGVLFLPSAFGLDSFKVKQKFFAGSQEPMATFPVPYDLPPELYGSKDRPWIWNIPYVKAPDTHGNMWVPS

SMILES | tested on | test | system | setting | how to read | endpoint | result
CCCCCCc1cccc([C@H](O)C[C@H](CO)NC(=O)CCCCCCCCCCBr)c1 | HeLa | CERT activity, HPLC-MS/MS lipidomics, refers to: sphingomyelin 24 |  | 1 µM, 24 h, not cell-number normalised |  | sphingomyelin level | 69300 pmol/sample and 68400 pmol/sample and 51400 pmol/sample
C=CC(=O)N1[C@@H](c2ccc3c(c2)OCO3)c2[nH]c3ccccc3c2C[C@H]1C(=O)N1CCN(C)CC1 | HEK293T expressing CCNE1-3xFLAG | CCNE1 immunoprecipitation level, TMT IP-MS, refers to: CCNE1 |  | 20 µM, 6 h | baseline: DMSO | log2 fold change | 0
CCCC[N+]1=c2cc3c4cc2[O][Mn-2]1(=[C]=O)(=[C]=O)(=[C]=O)[n+]1ccc(cc1)C(=O)OCCOC(=O)c1cc[n+](cc1)[Mn-2](=[C]=O)(=[C]=O)(=[C]=O)([O]3)[N+]=4CCCC | HCT-15 | MTT |  | 50 µM, 48 h, photolysed compound |  | viability reduction | ~92%
Nc1ncc(-c2cc(-c3cnn(CC(F)(F)F)c3)ncc2F)nc1C(=O)NC1CNCC(F)C1 (centres unmarked) | ANKK1 | KINOMEscan |  | 1 µM | baseline: DMSO control | remaining binding | 24%
CCOC(=O)c1ccc(NC(=O)C(C#N)=C2C(=O)c3ccccc3C2=O)cc1 | HepG2 | cell growth or viability, MTT |  | 1.56 µM, 24 h |  | viability | 100%
CC(=O)Oc1ccccc1C(=O)[Se]CC(=O)Nc1cccc(C(F)(F)F)c1 | NCI60 CNS subpanel | NCI60 five-dose screen |  |  |  | mean TGI | 4850 nM
C=CC(=O)Nc1cc(Nc2nccc(-c3c(-c4ccc(OC)c5ccccc45)n(C)c4ccccc34)n2)c(OC)cc1N(C)CCN(C)C | NCI-H1975 | cell growth or viability, MTT |  | 0.5 µM, 72 h |  | inhibition | 64.2%
C1=[N+]2CCCC[N+]3=Cc4ccc5[n]4[Au-]23[n]2c1ccc2-c1nc2ccccc2nc1-5.F[P-](F)(F)(F)(F)F | HCC 2998 | NCI60 five-dose screen |  |  |  | TGI | 4.48 -log M
CSc1nc(C=NOCc2ccc(-c3nc4cc(-c5ccccc5)ccn4c3Nc3ccc(C(=O)O)cc3)cc2)ccc1C#N (mixture of isomers) | TDP1 | enzyme activity, inhibitor |  | 100 µM, unpurified compound |  | inhibition | 35.7%
COc1ccccc1-c1ccncc1C(=O)Nc1nnc(OCc2ccc(Cl)cc2)s1 | DLD-1 BRCA2 knock-out | immunofluorescence |  | 5 µM, 96 h |  | γH2AX foci-positive nuclei | 48%
C=CC(=O)Nc1cc(Nc2nccc(-c3c(-c4ccc(C(C)(C)C)cc4)n(C)c4ccccc34)n2)c(OC)cc1N(C)CCN(C)C | NCI-H1975 | cell growth or viability, MTT |  | 0.5 µM, 72 h |  | inhibition | 65.3%
NC(=O)c1ccc(-c2ccccc2Cl)c2c3c([nH]c12)CC[C@H](N)C3 | A549 parental | cell proliferation |  |  |  | IC50 | 44.9 nM
COC(=O)c1cc(NC2=NC(=O)C(=Cc3ccc(N(C)C)cc3)S2)ccc1OC(C)=O | MCF7 | GC-MS, refers to: Dl-Ornithine |  | 1 µM | baseline: DMSO | metabolite level | 0.04 fold change
CN(C)CCN1CCN(c2ccc3nc(-c4ccc5nc(-c6ccc(C(F)(F)F)cc6)[nH]c5c4)[nH]c3c2)CC1 | HOP-62 | SRB |  | 10 µM, 48 h |  | growth percent | 57.6%
Cn1ncc2cc(-c3cncc(Cl)c3N3CCC4(CCNC4=O)CC3)ccc21 | LS174T | gene expression, microarray, refers to: MYL9 mRNA |  | concentration not given, 24 h | baseline: untreated cells | log2 fold change | 1.12
COc1ccc(CSC2C3=C(CCCC3=O)Oc3ccc(Br)cc32)cc1 (centres unmarked) | 3T3-L1 preadipocytes | adipogenesis, Oil Red O staining |  | IC20, 14 days, single replicate |  | lipid content | 0.956 OD492
CNS(=O)(=O)Nc1nccc(Cc2c(C)c3ccc(Oc4ncccc4F)cc3oc2=O)c1F | SU-DHL-5 | cell viability |  | 7 days |  | IC50 | > 1000 nM
O=C(NO)c1cnc(NC2(c3cccc(F)c3)CCCCC2)nc1 | U87 and MDA-MB-231 | inhibitor |  | 100 µM, added: [11C]HSP990 pre-incubation |  | cellular tracer uptake | increased
C=CC(=O)Nc1cc(Nc2nccc(-c3c(-c4ccccc4)n(C)c4ccccc34)n2)c(OC)cc1N(C)CCN(C)C | NCI-H1975 | cell growth or viability, MTT |  | 0.5 µM, 72 h |  | inhibition | 59.5%
O=C(C[Se]C(=O)c1ccccc1Nc1cccc(C(F)(F)F)c1)Nc1cccc(C(F)(F)F)c1 | NCI60 CNS subpanel | cell growth |  | 10 µM, 48 h, one-dose |  | mean growth percent | -90.9%
CCN(C(=O)c1cc(F)ccc1Oc1nncnc1N1CCC2(C1)CN([C@H](CCCN(C)CCOC)C(C)C)C2)C(C)C | OVCAR-3 | cell growth or viability |  | 72 h |  | GI50 | > 10000 nM
Cc1cc(Cl)cc(-c2ccnc3cc(CN4C(=O)C5C(C4=O)C5(C)C)sc23)c1C[C@@H]1CNCCO1 (some centres unmarked) | CHP-212 parental | annexin V/PI flow cytometry |  | 1 µM, 48 h |  | early apoptotic cells | 35.5% and 37.4% and 37.6%
CC(=O)NCCCN(C)CCCNc1cccc2c1C(=O)c1cccc(NCCCN(C)CCCNC(C)=O)c1C2=O | SAS | RNA-Seq, refers to: HMGN2 mRNA |  | 1 µM, 24 h | baseline: untreated cells | log2 fold change | 0.295
O=C(C[Se]C(=O)c1ccc2ccccc2c1)Nc1cccc(C(F)(F)F)c1 | NCI60 CNS subpanel | NCI60 five-dose screen |  |  |  | mean TGI | 3580 nM

SMILES | tested on | test | system | setting | how to read | endpoint | result
COc1cc(N(C)CCN(C)C)c(NC(=O)/C=C/c2ccc(-c3ccccc3)cc2)cc1Nc1nccc(-c2cn(C)c3ccccc23)n1 | NCI-H1975 | cell growth or viability, MTT |  | 0.5 µM, 72 h |  | inhibition | 69.9%
CN(C)C(=O)c1ccc(N2Cc3cn(Cc4ccc(F)cc4)nc3C2)cc1 | HEK293 expressing GluA1 and GluA2 | glutamate excitotoxic cell death, CellTox Green |  | added: glutamate |  | IC50 | 8.6 nM
Cc1ncsc1-c1ccc(C(C)NC(=O)C2CC(O)CN2C(=O)C(NC(=O)CCCCCCCCCCN2CCCC(Nc3ncc(Cl)c(Nc4ccccc4S(=O)(=O)C(C)C)n3)C2)C(C)(C)C)cc1 (centres unmarked) | 22Rv1 | RNA-seq, refers to: SOX13 mRNA |  | concentration not given | baseline: DMSO | log2 fold change | -1.03
COc1ccc2c(c1)c(CC(=O)[Se]CC(=O)Nc1cccc(C(F)(F)F)c1)c(C)n2C(=O)c1ccc(Cl)cc1 | NCI60 CNS subpanel | NCI60 five-dose screen |  |  |  | mean TGI | 3450 nM
CC(C)c1ccc(N(C)c2ccc3c(c2)OCC[C@H]3CNc2cnccc2C(=O)O)cc1 | COLO-679 | cell viability, CellTiter-Glo |  | 7 days |  | IC50 | 2040 nM
CCc1n(CC(=O)O[C@@H]2C[C@H](C)CC[C@H]2C(C)C)c2ccccc2[n+]1C | HTS cells (mouse) | gene microarray, refers to: SLC7A3 |  | 1 µM, 12 h, unit not given | baseline: untreated | mRNA level | 5.5
COc1ccc(NC(=O)c2c(Nc3ccccc3)sc(C(=O)N/N=C/c3ccc(OC)c(OC)c3)c2NC(C)=O)cc1 | HepG2 | cell growth or viability, SRB |  | 100 µM, 48 h |  | viability | 40.2%
COc1ccc(NC(=O)c2ccc3[nH]c(-c4ccc(N(C)C)cc4)nc3c2)cn1 | HCEC-hTERT | IncuCyte |  | concentration not given, 18 h |  | dead cell to confluence ratio | 82 and 1.99 and 9.16
O=C(C[Se]C(=O)c1cc2ccccc2o1)Nc1cccc(C(F)(F)F)c1 | NCI60 CNS subpanel | cell growth |  | 10 µM, 48 h, one-dose |  | mean growth percent | -86.6%
COC1CN([C@H]2CC[C@H]([C@@]3(C)Oc4c(Cl)cc(C(=O)NCc5c(SC)cc(C)[nH]c5=O)c(C)c4O3)CC2)C1 |  | RNA-seq, refers to: OSGIN2 | human, whole blood | dose not given, 24 h | baseline: pretreatment baseline | log2 fold change | 1.13
N#Cc1cccc(/C=C/C(=O)c2ccc(O)cc2)c1 | U-87 MG | refers to: RUNDC3B |  | concentration not given | baseline: untreated | fold change | 36.3
COC(=O)c1cccc(N2Cc3cnn(Cc4ccc(F)cc4)c3C2)c1 | HEK293 expressing GluA1 and GluA2 | glutamate excitotoxic cell death, CellTox Green |  | added: glutamate |  | IC50 | 361 nM
O=C(C[Se]C(=O)c1ccc2ccccc2n1)Nc1cccc(C(F)(F)F)c1 | NCI60 melanoma subpanel | cell growth, inhibitor |  | five-dose |  | GI50 | 1840 nM
CCN(CC)CC(=O)Nc1cccc(-n2cc(-c3ccc4ccc(-c5cn(-c6cccc(NC(=O)CN(CC)CC)c6)nn5)cc4c3)nn2)c1 | RCC4 | PCR angiogenesis array, refers to: TNF |  | 5 x IC50, 6 h, normoxia | baseline: untreated | fold regulation | -2.43 fold
COc1cc(N(C)CCN(C)C)c(NC(=O)/C=C/c2cccc(CC#N)c2)cc1Nc1nccc(-c2cn(C)c3ccccc23)n1 | NCI-H1975 | cell growth or viability, MTT |  | 0.5 µM, 72 h |  | inhibition | 62.8%
O=C(C[Se]C(=O)C12CC3CC(CC(C3)C1)C2)Nc1cccc(C(F)(F)F)c1 | NCI60 melanoma subpanel | total growth inhibition, inhibitor |  | five-dose |  | mean TGI | 9040 nM
CN1CCCNC(=O)c2cccc(c2)C(=O)NCCCN(C)CCCNc2cccc3c2C(=O)c2cccc(c2C3=O)NCCC1 | SAS | RNA-seq, refers to: NRSN2-AS1 mRNA |  | 1 µM, 6 h | baseline: untreated cells | log2 fold change | 2.42
O=C(C[Se]C(=O)c1ccccc1Nc1ccccc1)Nc1cccc(C(F)(F)F)c1 | NCI60 melanoma subpanel | total growth inhibition, inhibitor |  | five-dose |  | mean TGI | 3190 nM
COc1ccc(Br)c2c1OC1=C(C(=O)CCC1)C2c1c[nH]c2ccccc12 (centres unmarked) | 3T3-L1 preadipocytes | adipogenesis, Oil Red O staining |  | IC20, 14 days |  | mean lipid content | 0.788 OD492
CN(C)C(=O)c1cccc(N2Cc3cn(Cc4ccc(C#N)cc4)nc3C2)c1 | HEK293 expressing GluA1 and GluA2 | glutamate excitotoxic cell death, CellTox Green |  | added: glutamate |  | IC50 | 18 nM
CO[C@@H]1[C@@H](OC(N)=O)[C@@H](O)[C@H](Oc2ccc3c(O)c(NC(=O)c4ccc(O)c(CC=C(C)C)c4)c(=O)oc3c2C)OC1(C)C | DLD-1 parental |  |  | 300 µM, replicate 1 |  | colony count | 0.1
COc1cc(N2CCN(C(=O)C3CCCN3)CC2)ccc1Nc1ncc(Cl)c(Nc2ccccc2P(C)(C)=O)n1 (centres unmarked) | Ba/F3 EML4-ALK | annexin V flow cytometry |  | concentration not given, 3 h |  | late apoptotic cells | 7.6%
O=C(O)c1ccc(Nc2c(-c3ccc(CON=Cc4cn(Cc5ccc(Cl)cc5)nn4)cc3)nc3cc(-c4ccccc4)ccn23)cc1 (mixture of isomers) | TDP1 | enzyme activity, inhibitor |  | 100 µM, unpurified compound |  | inhibition | 45.7%

A few entries again:
SMILES | tested on | test | system | setting | how to read | endpoint | result
CN1CCCNC(=O)c2cccc(c2)C(=O)NCCCN(C)CCCNc2cccc3c2C(=O)c2cccc(c2C3=O)NCCC1 | SAS | RNA-seq, refers to: NRSN2-AS1 mRNA |  | 1 µM, 6 h | baseline: untreated cells | log2 fold change | 2.42
O=C(C[Se]C(=O)c1ccccc1Nc1ccccc1)Nc1cccc(C(F)(F)F)c1 | NCI60 melanoma subpanel | total growth inhibition, inhibitor |  | five-dose |  | mean TGI | 3190 nM
COc1ccc(Br)c2c1OC1=C(C(=O)CCC1)C2c1c[nH]c2ccccc12 (centres unmarked) | 3T3-L1 preadipocytes | adipogenesis, Oil Red O staining |  | IC20, 14 days |  | mean lipid content | 0.788 OD492
CN(C)C(=O)c1cccc(N2Cc3cn(Cc4ccc(C#N)cc4)nc3C2)c1 | HEK293 expressing GluA1 and GluA2 | glutamate excitotoxic cell death, CellTox Green |  | added: glutamate |  | IC50 | 18 nM
CO[C@@H]1[C@@H](OC(N)=O)[C@@H](O)[C@H](Oc2ccc3c(O)c(NC(=O)c4ccc(O)c(CC=C(C)C)c4)c(=O)oc3c2C)OC1(C)C | DLD-1 parental |  |  | 300 µM, replicate 1 |  | colony count | 0.1
